Measurements of several laboratories.
Each line is one published result; not all experiments were run side by side. Values joined by “and” are separate records of one study, mostly repeats; a detail may differ. ± marks the error that the study gave.

CC(=O)Nc1cccc(-n2c(=O)n(C3CC3)c(=O)c3c(Nc4ccc(I)cc4F)n(C)c(=O)c(C)c32)c1 — viability (COLO 205; resazurin; 100.00 nM, 72 h, unit not given; reference: DMSO): 0.0958 and 0.0722
CN(C)c1ccc(C2CCCN2Cc2ccc(-c3ccccc3[N+](=O)[O-])o2)cc1 (centres unmarked) — viability (HEK-Blue IL-33; MTS; up to 333 µM, 20 h): no effect
COc1cc2ncnc(Nc3ccc(Oc4ccccc4)c(C)c3C)c2cc1OC.Cl — viability (NCI-H2087 (BRAF L597V); cell growth, resazurin; 3 µM, 72 h, together with: 0 nM trametinib; reference: DMSO): 0.95 fraction of control
CC(C)n1ncc2c(C(=O)NCC3(C)CNC3)cc(C3CC3)nc21 — viability (Vero C1008; neutral red uptake; DMEM with 2% FBS; 0.11 µM; reference: positive control): 99.8%
Cc1ccc(CNC(=O)Cn2cc(CSc3nc4ccccc4[nH]3)nn2)cc1 — viability (HEK293; MTT; 3.91 ppm): 80.1%
CC(=O)Nc1cccc(-n2c(=O)n(C3CC3)c(=O)c3c(Nc4ccc(I)cc4F)n(C)c(=O)c(C)c32)c1 — viability (A-172; WST-8; 1 µM, 25 h): 94.5%
COc1ccc(Cn2cc(CO[C@@H]3O[C@H]4[C@H](OC[C@H]4O)[C@H]3O)nn2)cc1 — viability (Huh-7; cytotoxicity, CellTiter-Glo; up to 30 µM, 72 h): not toxic
O=C(NOCC(O)CO)c1cc(Br)c(F)c(F)c1Nc1ccc(I)cc1F (centres unmarked) — viability (A-172; WST-8; 1 µM, TDO inhibitor study): 104%
Cc1ccc(-c2ccc(CN3CCCC3c3ccc(N(C)C)cc3)o2)c([N+](=O)[O-])c1 (centres unmarked) — viability (HEK-Blue IL-33; MTS; up to 333 µM, 20 h): no effect
O=C(C[C@@H](C(F)F)n1ccc(F)n1)N1CCC(O)(Cn2cnc3c(cnn3-c3ccc(F)cc3)c2=O)CC1 — viability (LNCaP; CCK-8; 1.524 nM, 5 days): 89.1% and 84%
O=c1[nH]cc(F)c(=O)[nH]1 — viability (Huh-7; CCK-8; 50 µM, 48 (unit not given); reference: untreated control): 45.6 ± 0.75%
